Published values collected from several papers.
Lines come from different studies, so protocols differ. Several values in a cell are separate wells, animals, samples, runs or records. ± gives the spread as reported.

Compound | target or system | test | system | conditions | how to read | quantity | result
COC1OC(C)C(OC2OC(C)C(O)C(OC3OC(C)C(OC4OC(C)C(O)C(OC5OC(C)C(OC6OC(C)C(O)C(OC7OC(C)C(OC8OC(C)C(O)C(OC9OC(C)C(OC%10OC(C)C(O)C(OC%11OC(C)C(O)C(OS(=O)(=O)O)C%11OS(=O)(=O)O)C%10OS(=O)(=O)O)C(OS(=O)(=O)O)C9OS(=O)(=O)O)C8OS(=O)(=O)O)C(OS(=O)(=O)O)C7OS(=O)(=O)O)C6OS(=O)(=O)O)C(OS(=O)(=O)O)C5OS(=O)(=O)O)C4OS(=O)(=O)O)C(OS(=O)(=O)O)C3OS(=O)(=O)O)C2OS(=O)(=O)O)C(OS(=O)(=O)O)C1OS(=O)(=O)O (centres unmarked) | – | – | human plasma | 16 µg/mL | – | activated partial thromboplastin time | 52.4 s and 53.6 s and 53.5 s
CC(=O)[O-].O.O.[O-]c1ccc(Br)cc1C=NCCN1CCOCC1.[Zn+2] | – | nitric oxide scavenging | – | 40 µM | – | inhibition | 12.6%
Nc1nc2cc(CC[C@H]3C[C@@H](n4ccc5c(N)ncnc54)[C@H](O)[C@@H]3O)ccc2cc1Br | – | – | NCI-H441 xenograft, mouse | 1.0 mg/kg/day, day 38 | – | %ΔTGI | 44.8%
C=CC(=O)Nc1cccc(Cn2ncc3cnc(Nc4cnn(CCOC)c4)nc32)c1 | human CDK4-cyclinD3 | KINOMEscan | – | 100 nM | relative to: control | binding | 75%
COc1ccc(C(=O)CCc2cc(C(CCc3ccc(O)cc3OC)c3ccc(O)cc3)c(O)cc2OC)cc1 (racemic) | – | – | human blood | 30 µM, added: A23187 | – | TXB2 level | 1030 ± 383 pg/mL
CCCCCCCCCCCCCCCC(=O)OCC(CSC[C@H](N)C(=O)N[C@@H](CO)C(=O)N[C@@H](CCCCN)C(=O)N[C@@H](CCCCN)C(=O)N[C@@H](CCCCN)C(=O)N[C@@H](CCCCN)C(=O)NCCCCCC(=O)N[C@@H](CCCCN)C(=O)N[C@@H](CC(C)C)C(=O)N[C@H](C(=O)N[C@@H](Cc1ccccc1)C(=O)N[C@@H](Cc1ccccc1)C(=O)N[C@@H](Cc1ccc2ccccc2c1)C(=O)O)C(C)C)OC(=O)CCCCCCCCCCCCCCC (some centres unmarked) | – | OC antibody staining, refers to: amyloid-beta oligomer | APP/PS1 transgenic mouse, cortex | intracortical injection, dose not given | – | OC-positive area | 3.2% and 6.67% and 6.66%
O=C(CCC(F)(F)F)Nc1ccc([C@H]2[C@@H](F)[C@@H](F)C[C@@H](F)[C@H]2F)cc1 | – | hepatocyte stability | cryopreserved mouse hepatocytes | 1 µM | – | hepatic clearance | 80 mL/min/kg
COC1CN([C@H]2CC[C@H]([C@@]3(C)Oc4c(Cl)cc(C(=O)NCc5c(SC)cc(C)[nH]c5=O)c(C)c4O3)CC2)C1 | – | RNA-seq, refers to: NKD2 mouse homolog | mouse, HT-1376 xenograft, whole blood | dose not given | relative to: vehicle | log2 fold change | 1.88
CN1CCC[C@]1(C)/C=C/S(=O)(=O)NC(=O)Nc1c2c(cc3c1CCC3)CCC2 | – | – | human, whole blood ex vivo | 50 mg twice daily, day 14, 6 h, multiple ascending dose, added: LPS and ATP | – | IL-1β inhibition | 99%
COc1cc2c(NC3CCN(C(C)C)CC3)cc(N3CCOCC3)nc2cc1OCCCN1CCCC1 | – | TMT proteomics, refers to: MDH1 | 5xFAD mice, hippocampus | dose not given, unit not given | relative to: wild type | protein level difference | -0.0462
COC1OC(C)C(OS(=O)(=O)O)C(OC2OC(C)C(OS(=O)(=O)O)C(OC3OC(C)C(OS(=O)(=O)O)C(OC4OC(C)C(OS(=O)(=O)O)C(OS(=O)(=O)O)C4OS(=O)(=O)O)C3OS(=O)(=O)O)C2OS(=O)(=O)O)C1OS(=O)(=O)O (centres unmarked) | – | – | human plasma | 64 µg/mL | – | activated partial thromboplastin time | 63 s and 61.9 s and 63.4 s
Cc1ncsc1-c1ccc(C(C)NC(=O)C2CC(O)CN2C(=O)C(NC(=O)CCCCCCCCCCN2CCCC(Nc3ncc(Cl)c(Nc4ccccc4S(=O)(=O)C(C)C)n3)C2)C(C)(C)C)cc1 (centres unmarked) | 22Rv1 | RNA-seq, refers to: MCF2L mRNA | – | concentration not given | relative to: DMSO | log2 fold change | -1.33
O=C(NCc1cccc(Cl)c1)c1ccc(C2CCCCC2)cc1 | – | hepatocyte stability | cryopreserved human hepatocytes | 1 µM | – | hepatic clearance | 12 mL/min/kg
COC1OC(C)C(OS(=O)(=O)O)C(OC2OC(C)C(OS(=O)(=O)O)C(OC3OC(C)C(OS(=O)(=O)O)C(OC4OC(C)C(OS(=O)(=O)O)C(OC5OC(C)C(OS(=O)(=O)O)C(OC6OC(C)C(OS(=O)(=O)O)C(OC7OC(C)C(OS(=O)(=O)O)C(OC8OC(C)C(OS(=O)(=O)O)C(OC9OC(C)C(OS(=O)(=O)O)C(OC%10OC(C)C(OS(=O)(=O)O)C(OS(=O)(=O)O)C%10OS(=O)(=O)O)C9OS(=O)(=O)O)C8OS(=O)(=O)O)C7OS(=O)(=O)O)C6OS(=O)(=O)O)C5OS(=O)(=O)O)C4OS(=O)(=O)O)C3OS(=O)(=O)O)C2OS(=O)(=O)O)C1OS(=O)(=O)O (centres unmarked) | – | – | human plasma | 64 µg/mL | – | activated partial thromboplastin time | 208 s and 221 s and 216 s
